Experimental data collected from several papers.
Parts stem from different laboratories: compare values within a part only. Positions count from the first letter of the parent shown.

Set 1
Target: OGT, full length, His-tagged (human)
Method: phage display, sequencing
Sample: in vitro
Tested at: 1 µg OGT
Notes: single substitutions, 15-mer displayed peptide, unchanged parent 6.14
Baseline: input library
Direction: higher = stronger binding
Starting sequence: peptide; VAYPNSYMPKYQIST
Change	fold enrichment [fold]
VAYDNSYMPKYQIST [P4D]	6.91
VAYPSSYMPKYQIST [N5S]	6.34
VAYPNSYMPKYKIST [Q12K]	0.993
VAYPNSYMPKYIIST [Q12I]	1.91
VWYPNSYMPKYQIST [A2W]	0.379
VAYPNSYMPKYYIST [Q12Y]	0.887
VAYPNSYMPWYQIST [K10W]	1.45
VAYPNSYMPKYQIDT [S14D]	4.12
VAYGNSYMPKYQIST [P4G]	7.32
VAYPNIYMPKYQIST [S6I]	11.3
VAYPNSKMPKYQIST [Y7K]	0.661
VAYPNSYMPLYQIST [K10L]	3.6
VAYPNSYHPKYQIST [M8H]	0.959
VAYYNSYMPKYQIST [P4Y]	9.55
VAYPNSYMSKYQIST [P9S]	0.765
VAYPNPYMPKYQIST [S6P]	14.1
VAYPNSYMPPYQIST [K10P]	0.715
VAYPNSYMTKYQIST [P9T]	1.35
VAYPNSYMPKYQISA [T15A]	2.88
VAYPNGYMPKYQIST [S6G]	0.145
VAYPNSYMPKIQIST [Y11I]	2.32
QAYPNSYMPKYQIST [V1Q]	5.55
VAYHNSYMPKYQIST [P4H]	5.79
VAYPNSYMPKYQISQ [T15Q]	0.676
VAYPNSYMPKKQIST [Y11K]	0.752

Set 2
Target: Interferon regulatory factor 7, full length, phosphomimetic (IRF7, Homo sapiens, UniProt Q92985, residues 1-503, S101K/S471D/S472D/S475D/S476D/S477D/S483D/S484D/S487D)
Method: protein-binding microarray
Form: double-stranded DNA, one strand shown
Sample: in vitro
Tested at: 250 nM
Notes: 60-bp whole probe
With: salmon DNA 0.4 mg/ml
Baseline: random background probes
Direction: higher = stronger binding
All sequences stand within: GCCTAGCAC … GTCTTGATTCGCTTGACGCTGCTG
Construct (chain): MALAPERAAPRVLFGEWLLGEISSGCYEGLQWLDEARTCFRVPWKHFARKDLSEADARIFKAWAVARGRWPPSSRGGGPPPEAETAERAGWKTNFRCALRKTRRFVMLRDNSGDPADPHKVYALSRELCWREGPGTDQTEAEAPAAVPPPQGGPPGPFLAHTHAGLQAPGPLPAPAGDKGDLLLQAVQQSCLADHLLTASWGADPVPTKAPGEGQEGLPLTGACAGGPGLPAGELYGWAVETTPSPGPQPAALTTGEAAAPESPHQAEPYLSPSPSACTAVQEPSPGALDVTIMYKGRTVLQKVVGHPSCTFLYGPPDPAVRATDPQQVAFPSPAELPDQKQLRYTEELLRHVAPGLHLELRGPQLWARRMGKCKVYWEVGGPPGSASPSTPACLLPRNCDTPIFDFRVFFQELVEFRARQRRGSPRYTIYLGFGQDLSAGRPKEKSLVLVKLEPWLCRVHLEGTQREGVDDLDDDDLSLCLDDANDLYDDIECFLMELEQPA
Strand	log fluorescence [z-score]
TTAGGTCTCGTTCTCCTTTAGTGCTAG	3.72
TTCCCTCTGCTCCTCTTTTTGTGCTAG	1.17
GACGGTATCGACACTGGGGTCGTGCTA	-0.288
AACGGTTTCGGGTATCGGGACGTGCTA	7.94
GACGGTCCCCTTATCCTGACGTGCTAG	0.157
GACGAACTGGGGACTTGAGACGTGCTA	-0.115
TTAGGACTGGCGTTTCGGTTAGTGCTA	2.82
TTAGGACTGGGGACTGAGTTAGTGCTA	-0.434
TTTGAACTGAGTATCGATTAGTGCTAG	0.31
GACGATATCGGGACTGGACACGTGCTA	-0.384
CACGGTTTCGGTCTCGGGACGTGCTAG	8.12
TTAGGACTGCTACTTCTTTAGTGCTAG	-0.109
TTGTTTTTCATCATTGCCTAGTGCTAG	1.54
TTCTTTACCACATTCTCTGCGTGCTAG	1.4
TTCATTCCTGATCTCTGGTCGTGCTAG	0.816
TTAGATCTCACTCTCGATTAGTGCTAG	0.364
GACGGTATCGAGTATCGGGACGTGCTA	0.128
TTAGGTTCCGGTTTCGGTCAGTGCTAG	8.2
TCAAAAATCCCATTAAAACTGTGCTAG	0.375
TCAGTTTTTCATTTTGTACTGTGCTAG	1.99
TTAGGTATCGACACTGGATTAGTGCTA	0.133
TAAGGTCTCCTTTTCCTTTAGTGCTAG	2.17
TTAGGTATCGGGTTTCGGTTCGTGCTA	10.1
TTAGGACTGCTTTTCCTGTAGTGCTAG	0.976
GACGGTATCGGACTGGGTACGTGCTAG	-0.193

Set 3
Target: Sal-like protein 4, full length isoform A (SALL4, Homo sapiens, UniProt Q9UJQ4, residues 1-1053)
Sequence of UniProt Q9UJQ4 (whole entry, looked up): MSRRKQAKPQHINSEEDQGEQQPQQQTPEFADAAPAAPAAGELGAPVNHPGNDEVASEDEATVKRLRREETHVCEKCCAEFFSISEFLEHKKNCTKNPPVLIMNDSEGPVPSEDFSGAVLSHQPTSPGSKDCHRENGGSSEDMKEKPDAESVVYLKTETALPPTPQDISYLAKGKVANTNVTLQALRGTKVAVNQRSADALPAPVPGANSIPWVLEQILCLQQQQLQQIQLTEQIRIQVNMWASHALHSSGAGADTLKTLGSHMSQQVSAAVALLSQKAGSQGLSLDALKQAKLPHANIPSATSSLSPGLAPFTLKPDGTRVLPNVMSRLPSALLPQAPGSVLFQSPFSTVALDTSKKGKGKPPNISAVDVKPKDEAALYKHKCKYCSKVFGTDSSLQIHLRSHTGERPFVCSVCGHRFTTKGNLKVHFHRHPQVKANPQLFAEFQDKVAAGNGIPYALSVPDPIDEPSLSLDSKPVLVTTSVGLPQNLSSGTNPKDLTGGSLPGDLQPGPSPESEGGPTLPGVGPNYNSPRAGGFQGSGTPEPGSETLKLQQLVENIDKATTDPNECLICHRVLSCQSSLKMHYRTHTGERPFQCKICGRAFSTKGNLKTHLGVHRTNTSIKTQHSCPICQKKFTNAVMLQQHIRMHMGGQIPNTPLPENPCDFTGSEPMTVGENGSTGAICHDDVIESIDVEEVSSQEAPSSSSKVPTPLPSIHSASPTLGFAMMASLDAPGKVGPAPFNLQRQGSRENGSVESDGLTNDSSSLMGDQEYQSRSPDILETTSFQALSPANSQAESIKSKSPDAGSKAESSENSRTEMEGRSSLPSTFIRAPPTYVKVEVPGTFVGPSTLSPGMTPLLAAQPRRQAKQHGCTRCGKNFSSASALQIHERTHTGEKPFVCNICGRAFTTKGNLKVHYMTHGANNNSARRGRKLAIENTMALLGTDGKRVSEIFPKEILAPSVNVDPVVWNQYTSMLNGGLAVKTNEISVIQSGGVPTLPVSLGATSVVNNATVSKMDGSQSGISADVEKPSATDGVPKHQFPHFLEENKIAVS
Method: universal PBM
Form: double-stranded DNA, one strand shown
Sample: in vitro
Tested at: 600 nM
Notes: 8-mer, flanks averaged, mean of replicates
Direction: higher = stronger binding
Strand	E-score
AGTTGTAC	0.128
CCATAACA	0.273
GTGGTTTA	0.035
ATGCGTCG	-0.0389
CCGAGCCC	-0.33
CGGACGAC	-0.289
AGAAGAAT	0.0753
AGCCCCAA	-0.271
GTAAACAA	0.281
GTAGCCCA	-0.168
ACGATAGC	0.0452
CACCCCAC	-0.136
ACTGTACG	0.0569
TTCAGCAA	0.161
ATGCACCA	0.0615
GCATCGAC	-0.122
ACCCCATA	-0.206
CAGTTTTA	0.0938
CATATGAG	0.14

Set 4
Target: CCNB3, cyclin fold, Cln2 fusion (human)
Method: yeast growth competition, sequencing
Sample: yeast
Notes: strong parent motif
Baseline: not given
Direction: higher = stronger binding
Starting sequence: E2F1 docking peptide (human); PPVKRRLDFETDH
Change	normalised enrichment score
PPVKRMLDFETDH [R6M]	0.741
PKVKRRLDFETDH [P2K]	1.95
PPVKRRLPFETDH [D8P]	0.499
PPVKRRLDFETPH [D12P]	3.52
PPVKRRLDFEDDH [T11D]	1.96
PPTKRRLDFETDH [V3T]	1.01
PPVKRRLDFETGH [D12G]	3.13
PPVKRRLFFETDH [D8F]	3.17
PPVKRRLDFETTH [D12T]	2.83
PPVKRRLTFETDH [D8T]	2.94
PAVKRRLDFETDH [P2A]	1.8
PPVKRRLDFHTDH [E10H]	2.16
PPVKRRLDFVTDH [E10V]	1.61
PCVKRRLDFETDH [P2C]	2.21
PPQKRRLDFETDH [V3Q]	0.18
PPDKRRLDFETDH [V3D]	-0.273
PPVKWRLDFETDH [R5W]	0.0825

Set 5
Target: RNA binding protein fox-1 homolog 2, RRM domain, GST-SBP tag (RBFOX2, Homo sapiens, UniProt O43251-10, residues 100-194)
Method: RNA Bind-n-Seq
Form: RNA
Sample: in vitro
Tested at: 365 nM
Notes: natural RNA segment, single round, ends assumed
Baseline: no-protein control
Direction: higher = stronger binding
Construct (chain): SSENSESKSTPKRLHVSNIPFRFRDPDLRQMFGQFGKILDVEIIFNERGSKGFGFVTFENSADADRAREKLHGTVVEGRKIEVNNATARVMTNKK
Strand	RBNS enrichment (R)
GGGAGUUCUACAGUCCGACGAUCAAAGUGGAGUAACAUUUCUUUCAUCUUUGUUUACACUCUCACUAGGACUCUGAACCAUGAUUGGAAGCAGAAAUAUAGUACGAUAGUGCAAUAGCUCAGAACCCGCCUAAUGGAAUUCUCGGGUGCCAA	0.346
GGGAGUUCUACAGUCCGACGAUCGUUGGACCAUGUGGGACCCUGAUGGACCUGAAAGACCAGGAUCGGUCCAGCUCAGAUAUUGAGGGCUCUGAAGCCUAGUUCUGUCUUCUCUGGAGCAGCUGUGGCUUCCCUGGAAUUCUCGGGUGCCAA	0.224
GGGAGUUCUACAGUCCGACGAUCCAAGGUCCAUGUUUUUCUGGCUCUUCCUGCACACUCAUCCCUAGAUUAUGAGCGUUAAUGUACGAAAUGUGCAGAGCAAAUUGAGGCCAACUGUGGCAUCAAUACUGCAAUGGAAUUCUCGGGUGCCAA	0.381
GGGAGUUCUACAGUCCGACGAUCAUGUGUGUCUAAUGGCGAGCUGACAGCCCUCUGCUGAUAUUUGGCAGAAGGCACCAGACCAGCCCAGCAGCAAAUGCUCAUCUUUGGGAACAUAGGAAGCUUUACCUUGGUGGAAUUCUCGGGUGCCAA	0.206
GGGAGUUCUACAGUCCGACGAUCCUAGACAGCCUCUGGUCUACCAGGACAAGGCCCAGUCCCACUCAGCUCCUUUGAGAGCACCAGAAACGCUUAGGGAGACACCUGUGUUGAGGCCACACUGGGCGCGGUGCUGGAAUUCUCGGGUGCCAA	0.254
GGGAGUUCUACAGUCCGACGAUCAUUGCAAGCAGUUGCUGAGCCUGCUGGUGAACACCAUUGCAAGCAGUUGCUGAGCCUGCUCGUGAACACCAUUGCAAGCCAUUGCUGUCAAGCUUCAUGAGUUAAAUUUAUGGAAUUCUCGGGUGCCAA	0.367
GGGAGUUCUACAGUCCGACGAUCAUGUAAAACUUUUAAGGUAUAUCAUUAUAACUGAAGGAGAAGGUGCCCCAAAAUGCAAGAUUUUCCACAAGAUUCCCAGAGACAGGAAAAUCCUCUGGCUGGCUAACUGGUGGAAUUCUCGGGUGCCAA	0.571
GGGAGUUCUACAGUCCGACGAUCUGCAUGAUACCUUGAAAUUGGGGGGAGGGGGCAUGCCAAGUUGGGCAUCACUUUGUCUUAGCAAUUAAUGGGAUAUUGAUUACUAAAAUAAGUUAAUAUUAAGCAAGGUGUGGAAUUCUCGGGUGCCAA	6.04
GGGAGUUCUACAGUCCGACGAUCGAAUUCUUGCUUUUAAGUUCCUUUUGAUAUGUAUAUAAGCAAAGACCAGGGAUAAAUGGAAUUUUUAAAAUACAGGCUGCUGUGUUGGGGCCAGAAAUACAAGGUUGAUGUGGAAUUCUCGGGUGCCAA	0.527
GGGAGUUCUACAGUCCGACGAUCGGUCCCAUCUACUGUGGUCCACUGAGCCCAAUUUGAUAUGUAAAUACACCUCAAAUUUGGAAAGUUGCCCCAUCUCUCCCCCCCAACCCAUGCCCCUGCUCACCUCUGCCUGGAAUUCUCGGGUGCCAA	0.625
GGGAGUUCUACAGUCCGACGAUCAUAAGCUUUUGAUUUUUGUAUUGUUUGCAUCCCCUUGCCCUCAAUAAAUAAAGUUCUUUUUUAGUUCAAAUUUGAGACAGAAUGUUUGUUGUUCCCUCAGAAAUUCUUGUUGGAAUUCUCGGGUGCCAA	0.436
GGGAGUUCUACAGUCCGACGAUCAACAUGCUUAGUAGUUUUUAUACUAAUCAAAUGAAUUAUCACAGCACCUAGACAAUAACUUAGUUUUGCAUGCUUACAUUGGUCAUCCUUUUUAUGUACAUCAUUAAUCUUGGAAUUCUCGGGUGCCAA	1.25

For quick reference, copied from above (set 2):
Strand	log fluorescence [z-score]
TTCTTTACCACATTCTCTGCGTGCTAG	1.4
TTCATTCCTGATCTCTGGTCGTGCTAG	0.816
TTAGATCTCACTCTCGATTAGTGCTAG	0.364
GACGGTATCGAGTATCGGGACGTGCTA	0.128
TTAGGTTCCGGTTTCGGTCAGTGCTAG	8.2
TCAAAAATCCCATTAAAACTGTGCTAG	0.375
TCAGTTTTTCATTTTGTACTGTGCTAG	1.99
TTAGGTATCGACACTGGATTAGTGCTA	0.133
TAAGGTCTCCTTTTCCTTTAGTGCTAG	2.17
TTAGGTATCGGGTTTCGGTTCGTGCTA	10.1
TTAGGACTGCTTTTCCTGTAGTGCTAG	0.976
